# Results pooled from the literature.
# Protocols differ between the studies behind these lines. Numbers after ± are the reported error.
# DHX36: DHX36 53-105 (Homo sapiens, UniProt Q9H2U1)
# UniProt Q9H2U1, sequence (whole entry, looked up): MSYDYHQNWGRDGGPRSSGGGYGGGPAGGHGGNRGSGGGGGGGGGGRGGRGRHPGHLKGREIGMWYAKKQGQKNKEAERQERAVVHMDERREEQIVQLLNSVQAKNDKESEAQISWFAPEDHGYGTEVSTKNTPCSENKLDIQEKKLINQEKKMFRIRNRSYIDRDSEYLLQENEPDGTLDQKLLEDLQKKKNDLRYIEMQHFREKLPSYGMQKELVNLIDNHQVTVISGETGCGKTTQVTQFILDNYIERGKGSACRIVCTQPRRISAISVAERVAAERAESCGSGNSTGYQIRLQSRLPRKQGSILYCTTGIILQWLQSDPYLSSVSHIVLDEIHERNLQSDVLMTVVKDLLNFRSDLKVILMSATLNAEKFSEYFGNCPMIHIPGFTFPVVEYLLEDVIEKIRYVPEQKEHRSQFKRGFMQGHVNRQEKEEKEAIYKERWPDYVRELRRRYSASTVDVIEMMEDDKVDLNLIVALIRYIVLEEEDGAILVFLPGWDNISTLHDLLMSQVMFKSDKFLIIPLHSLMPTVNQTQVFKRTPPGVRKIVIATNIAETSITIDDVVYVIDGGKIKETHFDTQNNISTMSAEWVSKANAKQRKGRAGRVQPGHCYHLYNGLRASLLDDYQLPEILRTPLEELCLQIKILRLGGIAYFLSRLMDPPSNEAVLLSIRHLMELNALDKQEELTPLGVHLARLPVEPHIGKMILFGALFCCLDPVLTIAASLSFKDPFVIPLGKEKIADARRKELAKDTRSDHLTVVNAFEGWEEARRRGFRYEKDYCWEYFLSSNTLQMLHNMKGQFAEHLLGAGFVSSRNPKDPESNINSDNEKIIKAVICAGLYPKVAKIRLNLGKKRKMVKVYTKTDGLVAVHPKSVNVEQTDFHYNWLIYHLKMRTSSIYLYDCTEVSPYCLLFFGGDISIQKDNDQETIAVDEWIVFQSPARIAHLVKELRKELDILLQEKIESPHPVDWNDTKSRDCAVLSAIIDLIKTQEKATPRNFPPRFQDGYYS
# Putative PAS/PAC sensor protein full length assumed: Putative PAS/PAC sensor protein full length assumed (Nakamurella multipartita, UniProt C8XJT7)
# YBX1: YBX1 51-140 (Homo sapiens, UniProt P67809)
# UniProt P67809, sequence (whole entry, looked up): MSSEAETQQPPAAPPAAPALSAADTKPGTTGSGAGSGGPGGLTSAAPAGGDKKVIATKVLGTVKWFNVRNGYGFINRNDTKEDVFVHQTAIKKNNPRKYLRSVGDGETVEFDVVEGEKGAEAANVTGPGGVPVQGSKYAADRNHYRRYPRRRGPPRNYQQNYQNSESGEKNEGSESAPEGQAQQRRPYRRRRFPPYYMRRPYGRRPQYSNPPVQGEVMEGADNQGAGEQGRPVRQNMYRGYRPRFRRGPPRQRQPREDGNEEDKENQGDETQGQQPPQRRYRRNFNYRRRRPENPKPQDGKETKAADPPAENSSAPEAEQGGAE
# hel308: hel308 1-690 (Methanothermobacter thermautotrophicus, UniProt O26901)
# UniProt O26901, sequence (whole entry, looked up): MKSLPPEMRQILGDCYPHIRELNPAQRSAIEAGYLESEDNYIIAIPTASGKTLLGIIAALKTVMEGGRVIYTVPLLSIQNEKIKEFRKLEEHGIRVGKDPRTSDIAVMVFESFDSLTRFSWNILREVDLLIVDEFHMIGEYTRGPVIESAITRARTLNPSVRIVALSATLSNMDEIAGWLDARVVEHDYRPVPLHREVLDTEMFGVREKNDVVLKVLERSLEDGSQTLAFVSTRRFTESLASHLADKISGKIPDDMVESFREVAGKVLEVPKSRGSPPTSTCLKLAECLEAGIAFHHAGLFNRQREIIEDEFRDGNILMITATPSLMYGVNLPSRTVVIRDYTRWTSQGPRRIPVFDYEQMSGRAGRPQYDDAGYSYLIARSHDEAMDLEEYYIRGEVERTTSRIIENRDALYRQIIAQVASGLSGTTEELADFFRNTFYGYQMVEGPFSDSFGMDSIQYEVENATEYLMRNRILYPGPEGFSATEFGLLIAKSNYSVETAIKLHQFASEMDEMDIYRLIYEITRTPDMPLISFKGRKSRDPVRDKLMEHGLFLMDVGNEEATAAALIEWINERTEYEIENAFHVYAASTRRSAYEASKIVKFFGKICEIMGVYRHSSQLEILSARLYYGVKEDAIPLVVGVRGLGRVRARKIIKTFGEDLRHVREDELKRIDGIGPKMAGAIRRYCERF
# UniProt Q14934, sequence (whole entry, looked up): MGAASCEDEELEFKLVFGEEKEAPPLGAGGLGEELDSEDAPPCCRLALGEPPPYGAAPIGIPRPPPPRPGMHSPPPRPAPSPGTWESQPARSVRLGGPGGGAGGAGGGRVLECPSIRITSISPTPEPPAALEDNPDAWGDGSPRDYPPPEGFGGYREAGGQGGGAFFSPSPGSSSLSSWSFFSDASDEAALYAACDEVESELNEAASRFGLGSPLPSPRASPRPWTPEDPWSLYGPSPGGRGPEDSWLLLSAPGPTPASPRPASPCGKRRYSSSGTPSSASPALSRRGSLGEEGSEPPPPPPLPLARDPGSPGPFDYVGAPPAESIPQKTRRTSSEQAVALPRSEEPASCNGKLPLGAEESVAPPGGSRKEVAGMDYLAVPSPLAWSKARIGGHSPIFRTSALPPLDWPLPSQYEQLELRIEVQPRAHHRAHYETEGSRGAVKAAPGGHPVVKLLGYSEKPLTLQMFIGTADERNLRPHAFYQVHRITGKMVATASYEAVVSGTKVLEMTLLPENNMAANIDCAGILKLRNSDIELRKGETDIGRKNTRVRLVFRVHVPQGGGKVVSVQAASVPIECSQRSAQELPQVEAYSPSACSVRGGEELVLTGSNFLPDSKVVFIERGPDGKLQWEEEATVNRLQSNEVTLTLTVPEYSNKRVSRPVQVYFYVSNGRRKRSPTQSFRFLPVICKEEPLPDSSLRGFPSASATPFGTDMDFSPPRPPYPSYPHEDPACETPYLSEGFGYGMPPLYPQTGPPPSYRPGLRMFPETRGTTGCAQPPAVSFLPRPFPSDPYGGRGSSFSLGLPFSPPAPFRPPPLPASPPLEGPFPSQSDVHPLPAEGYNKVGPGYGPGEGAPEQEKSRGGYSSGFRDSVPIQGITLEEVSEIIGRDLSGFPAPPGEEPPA
# UniProt P56270, sequence (whole entry, looked up): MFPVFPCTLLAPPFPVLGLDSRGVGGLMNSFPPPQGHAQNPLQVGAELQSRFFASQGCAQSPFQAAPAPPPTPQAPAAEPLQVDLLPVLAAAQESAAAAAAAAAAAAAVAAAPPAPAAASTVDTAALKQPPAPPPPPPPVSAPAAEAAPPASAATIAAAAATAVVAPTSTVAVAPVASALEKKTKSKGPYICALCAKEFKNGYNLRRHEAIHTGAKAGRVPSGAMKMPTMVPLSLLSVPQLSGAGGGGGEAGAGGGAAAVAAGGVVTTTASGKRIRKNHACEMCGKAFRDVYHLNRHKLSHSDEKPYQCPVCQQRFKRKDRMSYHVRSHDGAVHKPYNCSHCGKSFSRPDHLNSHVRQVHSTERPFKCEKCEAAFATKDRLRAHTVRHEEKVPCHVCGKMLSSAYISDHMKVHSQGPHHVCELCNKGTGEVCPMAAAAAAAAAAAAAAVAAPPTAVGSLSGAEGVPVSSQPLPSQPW
# UniProt Q8GYY1, sequence (whole entry, looked up): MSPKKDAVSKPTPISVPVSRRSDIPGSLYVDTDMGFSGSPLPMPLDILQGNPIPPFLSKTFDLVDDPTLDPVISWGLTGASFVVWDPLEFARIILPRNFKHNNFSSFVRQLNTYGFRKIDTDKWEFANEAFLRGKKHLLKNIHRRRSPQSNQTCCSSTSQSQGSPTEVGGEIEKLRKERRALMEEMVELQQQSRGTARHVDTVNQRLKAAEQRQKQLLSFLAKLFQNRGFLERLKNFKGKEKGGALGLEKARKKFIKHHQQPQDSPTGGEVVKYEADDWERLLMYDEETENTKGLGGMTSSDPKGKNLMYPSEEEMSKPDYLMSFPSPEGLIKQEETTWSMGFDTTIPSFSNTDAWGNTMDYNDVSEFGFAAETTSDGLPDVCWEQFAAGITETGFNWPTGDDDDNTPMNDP
# UniProt Q9BYJ9, sequence (whole entry, looked up): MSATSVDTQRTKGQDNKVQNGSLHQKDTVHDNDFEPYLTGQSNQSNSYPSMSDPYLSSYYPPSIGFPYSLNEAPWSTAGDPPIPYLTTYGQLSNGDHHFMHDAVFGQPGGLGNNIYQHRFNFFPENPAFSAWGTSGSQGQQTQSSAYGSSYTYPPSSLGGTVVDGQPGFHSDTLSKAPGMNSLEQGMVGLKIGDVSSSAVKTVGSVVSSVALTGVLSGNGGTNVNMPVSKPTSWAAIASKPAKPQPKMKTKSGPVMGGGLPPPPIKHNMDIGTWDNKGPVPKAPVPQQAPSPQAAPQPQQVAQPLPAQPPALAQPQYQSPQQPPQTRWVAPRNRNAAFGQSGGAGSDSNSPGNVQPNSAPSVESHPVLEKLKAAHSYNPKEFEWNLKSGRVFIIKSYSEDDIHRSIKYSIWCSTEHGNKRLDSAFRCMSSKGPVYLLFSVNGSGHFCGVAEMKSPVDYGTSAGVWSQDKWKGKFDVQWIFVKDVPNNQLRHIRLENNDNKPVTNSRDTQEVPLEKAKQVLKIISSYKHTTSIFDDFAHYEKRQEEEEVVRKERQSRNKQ
# UniProt Q6Z312, sequence (whole entry, looked up): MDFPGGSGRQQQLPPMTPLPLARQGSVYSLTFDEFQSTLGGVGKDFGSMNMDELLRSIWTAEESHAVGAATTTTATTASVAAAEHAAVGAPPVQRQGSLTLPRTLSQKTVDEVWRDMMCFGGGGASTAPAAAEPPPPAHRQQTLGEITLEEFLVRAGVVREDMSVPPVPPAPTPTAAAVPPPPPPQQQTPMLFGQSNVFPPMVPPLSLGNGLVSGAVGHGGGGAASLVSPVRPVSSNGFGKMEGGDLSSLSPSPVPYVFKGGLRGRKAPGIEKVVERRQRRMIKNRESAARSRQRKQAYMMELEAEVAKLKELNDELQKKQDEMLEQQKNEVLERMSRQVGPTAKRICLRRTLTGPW
Sequence,target,assay,system,conditions,endpoint,result
GGGUUGCGGAGGGUGGGC (G-quadruplex RNA (Homo sapiens); G4),DHX36,EMSA,folded RNA,,binding,binds
GGGAGGACGAUGCGGCCCGUACAGCAGCGAUGCGGGUCGCGUGUCCACCCCGGCUCAGACGACUCGCUGAGGAUCCGAGA (stem-loop RNA; stem loop),Putative PAS/PAC sensor protein full length assumed,RiboGreen well assay,folded RNA,"residual dark binding, together with: blue light",binding,binds
AACAACT (ssDNA),YBX1,ITC,single-stranded DNA,,binding,binds
GTCGACCAGCTGAGTCGACCAGCTG (ssDNA; N6-methyl-dA),"YTHDF1 370-559 (Homo sapiens, UniProt Q9BYJ9)",pull-down,single-stranded DNA,,binding,binds
AGGAAGTTTTCCGCTGGT (dsDNA),"NFATC4 400-744 (Homo sapiens, UniProt Q14934)",EMSA,"double-stranded DNA, one strand shown",,binding,binds
GTATACCTGCAGCTGAGGCGAGCCGTTGGTGTGGATGGCAGGGGCAGGATTCGACTCTAGAGCGCA (ssDNA; stem-loop),"FGFR2 22-377 (Homo sapiens, UniProt P21802)",EMSA,single-stranded DNA,together with: Mg2+ 5 mM,binding,no binding
GGGAGGACGAUGCGGUACAGCAGCGAUGCCGUAGUUCUCAGGUCGGAUUCGCAAACAGACGACUCGCUGAGGAUCCGAGA (stem-loop RNA; stem loop),Putative PAS/PAC sensor protein full length assumed,RiboGreen well assay,folded RNA,"residual dark binding, together with: blue light",binding,binds
"DNA 1 CAACGTCATAGACGATTACATTGCTACATGGAGCTGTCTAGAGGATCCGA / DNA 2 GTCGGATCCTCTAGACAGCTCCATGATCACTGGCACTGGTAGAATTCGGC / DNA 3 TGCCGAATTCTACCAGTGCCAGTGATGGACATCTTTGCCCACGTTGACCC / DNA 4 TGGGTCAACGTGGGCAAAGATGTCC / DNA 5 TAGCAATGTAATCGTCTATGACGTT (dsDNA; four-way junction, one nick)",hel308,EMSA,folded DNA,,binding,binds
"GGAUUGUUACUGAUAAAGCAGGCAAAACC (ssRNA; hairpin, two internal loops)","licT 1-56 A4K (Bacillus subtilis, UniProt P39805)",SPR,folded RNA,,Kd,50 ± 20 nM
AGGGCGGTGTGGGAAGAGGGAAGAGGGGGAGG (G-quadruplex DNA (Homo sapiens)),"MAZ (Homo sapiens, UniProt P56270)",EMSA,folded DNA,,binding,binds
CCCACTTTCCAGAACTTTCACGG (dsDNA),"HSFA3 full length assumed (Arabidopsis thaliana, UniProt Q8GYY1)",EMSA,"double-stranded DNA, one strand shown",,binding,binds
GGUUAAAGCAGAUGACC (structured RNA),Putative PAS/PAC sensor protein full length assumed,32P well-retention assay,folded RNA,together with: blue light,binding,binds
"GGUUUGUUACUGAUAAAGCAGGCAAGACC (ssRNA (Bacillus subtilis); hairpin, two internal loops)","licT 1-56 (Bacillus subtilis, UniProt P39805)",SPR,folded RNA,,Kd,5500 ± 2200 nM
TCACGCGGGATCAATGTGTTCTTTCAGCTCCGGTCACGCTGACCAGGAATACCTCACTACC (dsDNA; one 5-methyl-dC opposite G),"ROS1 1-1393 Q607A (Arabidopsis thaliana, UniProt Q9SJQ6)",EMSA,"double-stranded DNA, one strand shown",130 nM,binding,no binding
AAUUGCUACCCAAUGCCUGGCCCAAGGGCAUUCCCAAAGCUUA (ssRNA),"Pcbp1 279-343 (Mus musculus, UniProt P60335)",EMSA,RNA,,binding,binds
"DNA 1 CAACGTCATAGACGATTACATTGCTACATGGAGCTGTCTAGAGGATCCGA / DNA 2 GTCGGATCCTCTAGACAGCTCCATGATCACTGGCACTGGTAGAATTCGGC / DNA 3 TAGCAATGTAATCGTCTATGACGTT (dsDNA; partial fork, lagging strand only)",hel308,EMSA,folded DNA,,binding,binds
CGUUGAAGCAGACGACC (structured RNA),Putative PAS/PAC sensor protein full length assumed,32P well-retention assay,folded RNA,together with: blue light,binding,no binding
"GCCCTGAAAGATTATGGAATGCGATTAGGGTAAAGGAAGAGAGCATAATCTTTCAGGGC (hairpin DNA; hairpin, 16 bp stem, 27 nt loop)","topA full length assumed (Escherichia coli, UniProt P06612)",fluorescence anisotropy,folded DNA,together with: EDTA,Kd,0.31 ± 0.05 nM
TGACCTGGCCGCCGTCCCCC (dsDNA),"AP2/ERF domain-containing protein 1-442 (Vitis vinifera, UniProt A5C831)",EMSA,"double-stranded DNA, one strand shown",,binding,binds
GGUUGAAGGAGACGACC (structured RNA),Putative PAS/PAC sensor protein full length assumed,32P well-retention assay,folded RNA,together with: blue light,binding,no binding
GGGUUGCGGAGGGUGGGCCUGGGA (G-quadruplex RNA (Homo sapiens); G4),DHX36,EMSA,folded RNA,,binding,binds
"DNA 1 TCACGCGGGATCAATGTGTTCTTTCAGCTCCGGTCACGCTGACCAGGAATACCTCACTACC / DNA 2 GGTAGTGAGGTATTCCCCCGTAAGGGTCCGTAAGGATGGTCAGCGTGACCGGAGCTGAAAGAACACCCGTAAGGGTCCGTAAGGACATTGATCCCGCGTGA (structured DNA; four-way junction, 5-methyl-dC)","ROS1 1-1393 (Arabidopsis thaliana, UniProt Q9SJQ6)",EMSA,folded DNA,130 nM,binding,binds
"DNA 1 ATCGATAGTCTCTAGACAGCATGTCCTAGCAAGCCAGAATTCGGCAGCGT / DNA 2 TAGCTATCAGAGATCTGTCGTACAGG (DNA; 3' ssDNA tail, 25 nt displaced strand)",hel308,EMSA,,,binding,binds
AACATCT (ssDNA),YBX1,ITC,single-stranded DNA,,binding,binds
GTAGGAGGCGCGGCTGCCACGAGACGAGGTACGTGGCCCCCATGCAGCAC (dsDNA),"BZIP23 1-357 (Oryza sativa, UniProt Q6Z312)",competition,"double-stranded DNA, one strand shown",,binding,binds
GGGAGGACGAUGCGGGGGCAGCAUGUGUCGUUCCUUCGCGUCCGGCGGGUUGAAGCAGACGACUCGCUGAGGAUCCGAGA (stem-loop RNA; stem loop),Putative PAS/PAC sensor protein full length assumed,"32P well-retention assay, RiboGreen",folded RNA,together with: blue light,binding,binds
UUGCGGAGGGUGGGCCUGGGAGGGGUGGUGGCCAUUUUUU (G-quadruplex RNA (Homo sapiens); G4),DHX36,EMSA,folded RNA,,binding,binds
UUUUCUUUUUUCUUAUUCUUAUU (ssRNA),"NAB3 321-415 N361A (Saccharomyces cerevisiae, UniProt P38996)",fluorescence anisotropy,RNA,,binding,binds

# Some of these lines once more:
Sequence,target,assay,system,conditions,endpoint,result
GTCGACCAGCTGAGTCGACCAGCTG (ssDNA; N6-methyl-dA),"YTHDF1 370-559 (Homo sapiens, UniProt Q9BYJ9)",pull-down,single-stranded DNA,,binding,binds
GTAGGAGGCGCGGCTGCCACGAGACGAGGTACGTGGCCCCCATGCAGCAC (dsDNA),"BZIP23 1-357 (Oryza sativa, UniProt Q6Z312)",competition,"double-stranded DNA, one strand shown",,binding,binds
GGGAGGACGAUGCGGGGGCAGCAUGUGUCGUUCCUUCGCGUCCGGCGGGUUGAAGCAGACGACUCGCUGAGGAUCCGAGA (stem-loop RNA; stem loop),Putative PAS/PAC sensor protein full length assumed,"32P well-retention assay, RiboGreen",folded RNA,together with: blue light,binding,binds
